# Assay results pooled from the literature.
# Lines come from different studies, so protocols differ. ± gives the spread as reported.
Structure (SMILES),cell line,assay,system,conditions,IC50
O=C1/C(=N\c2cccc(Cl)c2)c2ccccc2N1Cc1ccccc1,B16,"cell growth or viability, MTT",,48 h,570 nM
NC(=O)c1ccc(-c2ccccc2Cl)c2c3c([nH]c12)CCC(N)C3 (stereo not shown),SU-DHL-4,cell growth or viability,,96 h,15.9 nM
Cc1nc(Nc2ccc3c(c2)/C(=C/c2c[nH]c4ccccc24)C(=O)N3)c2ccccc2n1,B16,"cell growth or viability, MTT",,,790 nM
CCOC(=O)c1cc(C)[nH]n1,BEAS-2B,"cell growth or viability, MTT",,24 h,155000 nM
[BH3-][P+]1(C2CCCCC2)CCCCC1,SW-620,"cell growth or viability, MTT",,72 h,> 100000 nM
COc1ccc(O)c(C(=O)c2cnn(-c3oc(C)nc3C#N)c2)c1,CHO,"cytotoxicity, MTT",,,> 50000 nM
C=CCOCO[C@H](C(=O)NC[C@@H]1C[C@@H](OC)C(C)(C)[C@@H](C[C@@H](COC)OC)O1)[C@@]1(OC)CC(=C)[C@@H](C)[C@@H](C)O1,U-87 MG,"cell viability, sulforhodamine B",,"72 h, 37 °C, without H2O2",1760 ± 1290 nM
CNS(=O)(=O)Nc1nccc(Cc2c(C)c3ccc(Oc4ncccc4F)cc3oc2=O)c1F,SU-DHL-8,cell viability,,7 days,> 1000 nM
O=C1/C(=N\c2ccc(Cl)cc2Br)c2ccccc2N1C(=O)c1ccccc1Br,B16,"cell growth or viability, MTT",,48 h,26000 nM
Cn1ncc(-c2ccc3c(=O)[nH]nc(CN)c3c2)c1-c1c(F)c(Cl)cc(OC2CC2)c1C#N,Li-7,"cell viability, CellTiter-Glo",,120 h,230 nM
Cc1cnc(Nc2ccc3c(c2)CCN(C(=O)/C=C/C(=O)C2CCC(C)CC2)C3)nc1-c1cnn(C(C)C)c1 (stereo not shown),MDA-MB-157,"cell growth or viability, MTT",,48 h,1340 nM
CSCC[C@H](NC(=O)[C@H](CCCCN)NC(=O)[C@H](CCCNC(=N)N)NC(=O)[C@H](CO)NC(=O)[C@H](Cc1c[nH]c2ccccc12)NC(=O)[C@H](CCCNC(=N)N)NC(=O)[C@H](CC(C)C)NC(=O)CN)C(=O)N1CCC[C@H]1C(=O)N[C@@H](CS)C(=O)N[C@H](C(=O)N[C@@H](CO)C(=O)O)C(C)C,SUP-T1,"Erk phosphorylation, inhibitor, phospho flow cytometry",,added: CXCL12 100 ng/mL,> 100000 nM
C=CC(=O)N1CC2C(=O)N(CCN(C)C)c3c(c4cc(Cl)c(-c5c(O)cccc5F)nc4n(-c4c(C)ccnc4C(C)C)c3=O)N2CC1C (stereo not shown),NCI-H23 (KRAS G12C),"cell proliferation, inhibitor",,,8.09 ± 1.59 nM
CCOc1cncc(-c2ccc(NC(=O)C3(c4ccnc(NS(=O)(=O)C5CC5)n4)CCOCC3)nc2)n1,renal cancer,"cell viability, CellTiter-Glo",DMSO 0.1%,"72 h, line code 1220",89 nM
Cc1nc(N(C)c2ccc3c(c2)/C(=C/c2ccccc2C)C(=O)N3C)c2ccccc2n1,B16,"cell growth or viability, MTT",,,1540 nM
O=C(Nc1ccc(F)cc1)NC1CCN(c2ncnc3nc[nH]c23)C1 (stereo not shown),CHO,"cytotoxicity, MTT",,,> 50000 nM
O=C(NCC1(c2nc(-c3ccccc3)cs2)CCOCC1)c1cccc(-c2noc(C(F)(F)F)n2)c1,SU-DHL-4,"cell growth or viability, CCK-8",,7 days,3830 nM
Cc1nc(Nc2ccc3c(c2)/C(=C/c2ccccc2)C(=O)N3)c2ccccc2n1,BEAS-2B,"cell growth or viability, MTT",,,7010 nM
CC(C)c1ccc(N(C)c2ccc3c(c2)OCC[C@H]3CNc2cnccc2C(=O)O)cc1,COR-L279,"cell growth or viability, ATP luminescence",,7 days,4.34 nM
Cc1ccc([N+](=O)[O-])cc1S(=O)(=O)N(C)/N=C/c1cnc2ccc(Br)cn12,NCI/ADR-RES,"cytotoxicity, MTS",,,24 nM
O=C(NCc1cc(F)cc(F)c1)[C@@]1(O)CCN(c2ccc3[nH]ccc3c2)C1=O,B16-F10,cell growth or viability,,,2000 nM
Cc1nc(N(C)c2ccc3c(c2)/C(=C/c2cn(C)c4ccccc24)C(=O)N3C)c2ccccc2n1,B16,"cell growth or viability, MTT",,,2230 nM
O=C1Nc2ccccc2C12NC(c1ccc(F)cc1)C1(C(=O)Nc3ccccc31)N2Cc1ccc(F)cc1 (stereo not shown),B16,"cell growth or viability, MTT",,48 h,22900 nM
CC(C)(C)c1nc(-c2cccc(NS(=O)(=O)c3c(F)cccc3F)c2F)c(-c2ccnc(N)n2)s1.Cc1[nH]c2ccccc2c1CCNCc1ccc(/C=C/C(=O)NO)cc1,A2780C/P,"cell growth or viability, crystal violet",,48 h,16.9 nM
O=C1/C(=N\c2ccc(Cl)cc2Br)c2ccccc2N1C(=O)c1ccccc1,B16,"cell growth or viability, MTT",,48 h,> 100000 nM
Cc1cc2cc(C(=O)N(Cc3ccc(C(F)(F)F)cn3)[C@H](C)c3ncccn3)ccc2nc1N,U-87 MG,,,,65 nM
CC(=O)[O][Pd][c]1ccccc1N1N=C(C)C(C)(C)C1=O.CC(=O)[O][Pd][c]1ccccc1N1N=C(C)C(C)(C)C1=O,BEAS-2B,"cell growth or viability, MTT",,24 h,> 100000 nM
O=[P@]1(c2ccccc2)CC[C@H](O)CC1,SW-620,"cell growth or viability, MTT",,72 h,> 100000 nM
CC(=O)[O][Pt]([NH2])([NH2])([Cl])([Cl])[O]C(=O)CCCc1ccccc1,PSN1,"cell growth or viability, MTT",,72 h,1580 nM
O=C1C(Nc2ccc(Cl)cc2)c2ccccc2N1Cc1ccccc1 (stereo not shown),B16,"cell growth or viability, MTT",,48 h,45600 nM
Cc1ccccc1Nc1c(-c2ccco2)nc2c(C(F)F)cccn12,UMRC2,,,,6800 nM
COc1cc(C(=O)N/N=C/c2cccc3ccccc23)cc(OC)c1OC,697,"cell viability, MTT",,48 h,62.5 nM
CN1CCC(N[C@H]2CCc3[nH]c4c(C(N)=O)ccc(-c5ccccc5Cl)c4c3C2)CC1,SU-DHL-4,cell growth or viability,,,1950 nM
C=CC(=O)N1CCCC(n2c(=O)c3ncccc3n(Cc3ccc(Oc4ccccc4)cc3)c2=O)C1 (stereo not shown),SU-DHL-4,"cell growth or viability, MTT",,72 h,40 nM
